Results collected from several papers.
Numbered parts are unrelated; each lists some results of a single study. Several values in a cell are separate wells, animals, samples, runs or records. Positions count from the first letter of the parent shown.

Block 1
Organism: Sarcocystis neurona
Effect on: parasite growth
Concentration: concentration not given
Setting: secondary screen
Compound | inhibition
CN1C(C(=O)Nc2ccccn2)=C(O)c2ccccc2S1(=O)=O.O | -20.8%
COc1nc(C)nc(Cl)c1NC1=NCCN1.Cl | -39%
Cl.c1ccc2c(c1)CCCC2C1=NCCN1 (stereo not drawn) | -24.2%
CCC(C)(C)N=C(NC#N)Nc1cccnc1 | -18%
COc1ccccc1N1CCN(CCCNc2cc(=O)n(C)c(=O)n2C)CC1.Cl | -30.8%
CN1[C@@H](CC(=O)c2ccccc2)CCC[C@H]1C[C@H](O)c1ccccc1.Cl | -24.9%
O=C1c2c(O)cc(O)cc2OC(c2ccc(O)c(O)c2)C1O (stereo not drawn) | -15.4%
CC(CN1c2ccccc2Sc2ccccc21)N(C)C.Cl (stereo not drawn) | -42.6%

Block 2
Cell line: mouse MPNST tumor cells
Technique: high-content immunofluorescence imaging
Measured: nuclear SOX9
Concentration: 10 µM
Time: 12 h
Setting: mean of 2 replicates
Baseline: DMSO control
Direction: higher = more nuclear SOX9
SMILES | nuclear SOX9 intensity
CC(C)NC(=O)c1ccc(C#Cc2ccncc2)cn1 | 91 % of DMSO
CCn1cc(C(=O)O)c(=O)c2cnc(N3CCCC3)nc21 | 80.7 % of DMSO
CN(C)CC(c1ccc(O)cc1)C1(O)CCCCC1 (stereo not drawn) | 91 % of DMSO
CC(C)C[C@H](NC(=O)N1CCCCCC1)C(=O)N[C@H](Cc1cn(C)c2ccccc12)C(=O)N[C@H](Cc1ccccn1)C(=O)O | 91.1 % of DMSO
O=C(Nc1ccccc1)OCC(CN1CCCCC1)OC(=O)Nc1ccccc1 (stereo not drawn) | 123 % of DMSO
Cc1cc(-c2ccc(CC(=O)Nc3ccc(-c4cccnc4)cc3)cc2)ccn1 | 159 % of DMSO
NCCc1c[nH]cn1 | 93.9 % of DMSO and 107 % of DMSO
CN/C(=N\CCSCc1nc[nH]c1C)NC#N | 98.3 % of DMSO and 95.2 % of DMSO

Other studies, line by line
P1: viral docking peptide; PTARRRLLHDLDT; partner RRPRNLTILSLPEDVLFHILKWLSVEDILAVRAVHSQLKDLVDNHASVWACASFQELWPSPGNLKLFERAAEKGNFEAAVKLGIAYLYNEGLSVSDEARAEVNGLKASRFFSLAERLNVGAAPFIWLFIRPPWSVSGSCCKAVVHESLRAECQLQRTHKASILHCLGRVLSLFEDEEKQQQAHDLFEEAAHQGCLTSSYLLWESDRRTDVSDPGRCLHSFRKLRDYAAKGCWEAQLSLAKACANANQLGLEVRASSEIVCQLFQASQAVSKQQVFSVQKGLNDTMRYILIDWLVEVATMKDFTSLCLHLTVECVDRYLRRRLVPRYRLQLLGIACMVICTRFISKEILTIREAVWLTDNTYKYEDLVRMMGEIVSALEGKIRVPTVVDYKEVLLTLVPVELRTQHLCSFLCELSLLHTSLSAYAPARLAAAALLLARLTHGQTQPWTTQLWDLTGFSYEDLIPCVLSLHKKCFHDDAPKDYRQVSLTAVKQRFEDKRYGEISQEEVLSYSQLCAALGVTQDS
Substance | target | test | system | conditions | scale | endpoint | result
Cc1cc2c(-c3ccco3)cnc(N[C@H]3CCN(C)C[C@@H]3C(=O)NC3CCCCC3)c2[nH]c1=O | SLC6A4 (Homo sapiens, UniProt P31645) | cell-free assay | – | 10 µM | – | inhibition | 13.8%
P1 D12A | CCNF, cyclin fold, Cln2 fusion (human) | yeast growth competition, sequencing | yeast | strong parent motif | baseline: not given, higher = stronger binding | normalised enrichment score | 1.73
